{"data": "Experimental data pooled from the literature", "note": "A part holds a random share of what one study measured."}
{"data": "Block 1", "organism": "Saccharomyces cerevisiae", "effect on": "binding", "method": "competitive growth deep sequencing", "molecule type": "peptide", "strain": "cyclin E1-Cln2 fusion strain", "concentration": "concentration not given", "notes": "tiling library, Cln2 subtracted", "reading": "direction not given"}
{"Sequence": "IPDRSTKPVVFSPT", "growth enrichment score": 0.392}
{"Sequence": "VLLKRLQDVVSERANH", "growth enrichment score": -0.0662}
{"Sequence": "KRCATPVIIDEILPSK", "growth enrichment score": 0.866}
{"data": "Block 2", "target": "Fragile X messenger ribonucleoprotein 1, C-terminal low-complexity region (Fmr1, Mus musculus, UniProt P35922)", "method": "RNA Bind-n-Seq", "molecule type": "RNA", "medium": "in vitro", "concentration": "200 nM", "notes": "whole 134-nt RNA, ends assumed", "added": "150 mM KCl", "relative to": "input library", "reading": "higher = stronger binding", "shared flanks, not repeated": "GGGAGUUCUACAGUCCGACGAUC … UGGAAUUCUCGGGUGUCAAGG"}
{"Oligonucleotide": "AAGUCCUGUGCUACACAUCGUAUGUACCGAAUCGGGGAAAGGGGAAAGGGGAAAGGAAAGUAUUAUGUUACGCCGUUCGGAUCUGCACUU", "log2 enrichment": -0.00228}
{"Oligonucleotide": "AGUCCUGUGCUACACAUCGUAUGUACCGAAUCAAACCCCCCCAAACCCAAACCCAAAAAAGUAUUAUGUUACGCCGUUCGGAUCUGCACU", "log2 enrichment": -0.0668}
{"Oligonucleotide": "ACCAUGCAGGUAGGCAUCUUUGGGAAGUGGGGCAAGGGGGGGAUAGGGAGGGGGGUAACACUUUGGGAACAGGUGGUCCCAGGUCGUUUC", "log2 enrichment": 1.02}
{"Oligonucleotide": "UGGGAGGUGGAUUUUGUUUAUUUUUUUAGCUCAUUUCCAGGGGUGGGAAUUUUUUUUUAAUAUGUGUCAUGAGUAAAGUUGUUUUUGAAA", "log2 enrichment": 0.43}
{"Oligonucleotide": "AAGUCCUGUGCUACACAUCGUAUGUACCGAAUCGGGGAAAAGGAAAAGGGGAAAAGGAAAGUAUUAUGUUACGCCGUUCGGAUCUGCACU", "log2 enrichment": -0.182}
{"Oligonucleotide": "CACAGACAACACGCACCCACACAGACACAGAGGGAAGGGGUUGGGAUGGGGACAUGGUGCACAGCAGGGCGGGGUAGGACCCCAGCCCCU", "log2 enrichment": 1.16}
{"Oligonucleotide": "CUCAAGUCCUGUGCUACACAUCGUAUGUACCGAAUCGGGAGGGUGGGAAAGGGAAAGUAUUAUGUUACGCCGUUCGGAUCUGCACUUCCA", "log2 enrichment": 1.31}
{"Oligonucleotide": "AGUCCUGUGCUACACAUCGUAUGUACCGAAUCAAAUUUUUUUAAACCCAAAUUUAAAAAAGUAUUAUGUUACGCCGUUCGGAUCUGCACU", "log2 enrichment": -0.607}
{"Oligonucleotide": "UCCUGUGCUACACAUCGUAUGUACCGAAUCGGGGCCCCCCGGGCCCCCCGGCCCCCCGGGAAAGUAUUAUGUUACGCCGUUCGGAUCUGC", "log2 enrichment": -0.0794}
{"data": "Block 3", "target": "Prothrombin, mature alpha-thrombin (F2, Homo sapiens, UniProt P00734)", "method": "aptamer microarray, sandwich", "molecule type": "DNA with 2'F-ANA", "medium": "in vitro", "concentration": "200 nM", "notes": "whole 15-mer aptamer, many near background", "added": "Cy3 exosite-II aptamer, 400 nM", "reading": "higher = stronger binding", "oligonucleotide": "GGTTGGTGTGGTTGG"}
{"Modification": "2'F-ANA at 1 4 6 9 12 13 14", "mean fluorescence intensity": "48.9 a.u."}
{"Modification": "2'F-ANA at 2 3 9 11 13 14", "mean fluorescence intensity": "396 a.u."}
{"Modification": "2'F-ANA at 1 2 3 4 5 6 7 8 9 10 12 14 15", "mean fluorescence intensity": "67.7 a.u."}
{"Modification": "2'F-ANA at 1 3 4 5 7 12 13 14", "mean fluorescence intensity": "47.7 a.u."}
{"Modification": "2'F-ANA at 5 6 7 8 9 12 13 14 15", "mean fluorescence intensity": "47.2 a.u."}
{"Modification": "2'F-ANA at 1 2 10 11 13 14 15", "mean fluorescence intensity": "56.6 a.u."}
{"Modification": "2'F-ANA at 1 4 9 10 11 12 14 15", "mean fluorescence intensity": "51.9 a.u."}
{"Modification": "2'F-ANA at 1 7 11 12 14", "mean fluorescence intensity": "75.2 a.u."}
{"Modification": "2'F-ANA at 1 2 5 6 7 8 9 10 11 12 14", "mean fluorescence intensity": "51.2 a.u."}
{"Modification": "2'F-ANA at 2 3 6 8 10 11 12 13 14 15", "mean fluorescence intensity": "216 a.u."}
{"Modification": "2'F-ANA at 5 6 8 10 11", "mean fluorescence intensity": "50.7 a.u."}
{"Modification": "2'F-ANA at 3 5 8 9 10 15", "mean fluorescence intensity": "61.8 a.u."}
{"Modification": "2'F-ANA at 2 3 5 7 8 10 12 13 15", "mean fluorescence intensity": "55.4 a.u."}
{"Modification": "2'F-ANA at 3 4 6 7 11 14 15", "mean fluorescence intensity": "275 a.u."}
{"Modification": "2'F-ANA at 3 4 5 6 7 9 13 14", "mean fluorescence intensity": "79.8 a.u."}
{"Modification": "2'F-ANA at 1 3 4 5 6 10 11 12", "mean fluorescence intensity": "50.9 a.u."}
{"Modification": "2'F-ANA at 2 5 6 7 10 11 12 13 14", "mean fluorescence intensity": "47.7 a.u."}
{"Modification": "2'F-ANA at 1 4 6 7 8 10 13 14", "mean fluorescence intensity": "119 a.u."}
{"Modification": "2'F-ANA at 2 3 4 8 9 10 11 14", "mean fluorescence intensity": "188 a.u."}
{"Modification": "2'F-ANA at 2 5 8 10 11 15", "mean fluorescence intensity": "47.3 a.u."}
{"Modification": "2'F-ANA at 4 5 6 7 10 12 13 15", "mean fluorescence intensity": "51.2 a.u."}
{"Modification": "2'F-ANA at 1 6 14", "mean fluorescence intensity": "51.1 a.u."}
{"Modification": "2'F-ANA at 1 2 4 7 12 15", "mean fluorescence intensity": "378 a.u."}
{"Modification": "2'F-ANA at 1 2 9 10 12 15", "mean fluorescence intensity": "78.6 a.u."}
{"data": "Block 4", "target": "Histone acetyltransferase KAT6A, winged helix 1, GST fusion (KAT6A, Homo sapiens, UniProt Q92794, residues 1-85)", "method": "protein binding microarray", "molecule type": "double-stranded DNA, one strand shown", "medium": "in vitro", "concentration": "not given", "notes": "8-mer, flanks averaged, mean of 2 arrays, mostly near background", "relative to": "not given", "reading": "higher = stronger binding", "Construct (chain)": "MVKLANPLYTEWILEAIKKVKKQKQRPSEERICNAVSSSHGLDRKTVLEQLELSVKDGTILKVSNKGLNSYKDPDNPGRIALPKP"}
{"Oligonucleotide": "CATGCCAC", "E-score": -0.0459}
{"Oligonucleotide": "ACAATTAG", "E-score": -0.0716}
{"Oligonucleotide": "CAGCTCTC", "E-score": -0.274}
{"Oligonucleotide": "GAATTTAC", "E-score": 0.00173}
{"Oligonucleotide": "CAGGCTAA", "E-score": -0.122}
{"Oligonucleotide": "ATCCTCAT", "E-score": -0.232}
{"Oligonucleotide": "TCCGATCA", "E-score": 0.00349}
{"Oligonucleotide": "GTTTCGGA", "E-score": -0.189}
{"Oligonucleotide": "GCCCCCAC", "E-score": 0.00566}
{"Oligonucleotide": "ACGAACGC", "E-score": 0.161}
{"Oligonucleotide": "ACATGTCT", "E-score": -0.0771}
{"Oligonucleotide": "GGGTTTAA", "E-score": 0.0163}
{"Oligonucleotide": "TGCAAAAA", "E-score": -0.2}
{"Oligonucleotide": "AGAACTCC", "E-score": -0.111}
{"Oligonucleotide": "AGGTGACA", "E-score": -0.0658}
{"Oligonucleotide": "ACTATAGC", "E-score": 0.114}
{"Oligonucleotide": "AACCCGCA", "E-score": 0.141}
{"Oligonucleotide": "ATTCAGTG", "E-score": -0.112}
{"Oligonucleotide": "GGAATAAA", "E-score": -0.088}
{"Oligonucleotide": "CATGTAAC", "E-score": 0.12}
{"Oligonucleotide": "AACAGGCG", "E-score": 0.0809}
{"Oligonucleotide": "ACCCAGAG", "E-score": -0.28}
{"data": "Block 5", "target": "RNA binding protein fox-1 homolog 2, RRM domain, GST-SBP tag (RBFOX2, Homo sapiens, UniProt O43251-10, residues 100-194)", "method": "RNA Bind-n-Seq", "molecule type": "RNA", "medium": "in vitro", "concentration": "365 nM", "notes": "natural RNA segment, single round, ends assumed", "relative to": "no-protein control", "reading": "higher = stronger binding", "shared flanks, not repeated": "GGGAGUUCUACAGUCCGACGAUC … UGGAAUUCUCGGGUGCCAA", "Construct (chain)": "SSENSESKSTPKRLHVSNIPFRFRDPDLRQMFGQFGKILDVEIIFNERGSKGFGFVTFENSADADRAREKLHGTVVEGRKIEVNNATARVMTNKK"}
{"Oligonucleotide": "GGCAGGAAUAAUAACUUUUACAUUUGUAUCUCUGCACCCCCGAGUGCCUAGUAUAGUGCUGAGCACAUAGUAGGCGUUUAAUAAAUGCUUGUUGAAGUAUUGUGUGGAUU", "RBNS enrichment (R)": 0.586}
{"Oligonucleotide": "ACUGUGCGUCUCCUGCCUUGUCGUUCGGUAAUGAGACUAGAAAGAGAUACACUGUAAAGGAGGGGGAAGGGAAGGGUUGACCAGUUGGGUUUUUUGCGUCCUUUUGGAAU", "RBNS enrichment (R)": 1.46}
{"Oligonucleotide": "GAGCCAACAUCUGAAGAAACCCAUUGCUACGGCUUCCAGUGAAUGCCAGAGGAAAUGAUCUGUCCAUUUUUAGCAGAUUUGAAGGGAGGAUCUGCUUCAGGUGUAGUCUG", "RBNS enrichment (R)": 1.34}
{"Oligonucleotide": "CUUUUAAAUCUGUAUGUAAAAUCUUUUCAAAAUACAUUUUUAAGCUAAUACUCUUAACAUAGAUUAUGAAGUUAAGUGAAAUUUAUGGCUCUAACAGCAAAAUAAUUAAA", "RBNS enrichment (R)": 7.43}
{"Oligonucleotide": "UUUUUAAGACUAAGGCAGUUUAUAGAAUGAAGUAUAUCAAUAUUCUUUUGGUUUCCCAAAGCAAUAUUUUACUUUUCAUUUAUUAUAGUUUGAAAGACAUUUUUCAUUGU", "RBNS enrichment (R)": 0.665}
{"Oligonucleotide": "GGCGUUUCAACUCAUAUAAUACAGAAAGAGUUUUGAAUGGGCAGAUUUCAAACUGAAUAUGGGUCCCCAAAUGUUCCCAGAGGGUCCUCCACACCCUCUGCCGACUACCA", "RBNS enrichment (R)": 0.409}
{"Oligonucleotide": "GCCAACCGGCUGCUCUAGGCUCCUGAGGAGUGUCCCUUCUCAAAGGAACUGCGCCCUGGAAAGGGCUCCCCGAAGUUCUAGGUGGCCUUGACCUGACACUUGCAUUUUCU", "RBNS enrichment (R)": 1.34}
{"Oligonucleotide": "UUCAUGAAGGGAGUCAUGGGGAAUUCCUGAAAAUUUUCUUCCUUCUGCAGACAGUUGGAUGAGUCCCUUAGAGAAGGCAUCCAGAGACAUAACUAAACUGAAUAUCAUCC", "RBNS enrichment (R)": 0.279}
{"note": "For quick reference, copied from above (block 5):"}
{"Oligonucleotide": "GGCAGGAAUAAUAACUUUUACAUUUGUAUCUCUGCACCCCCGAGUGCCUAGUAUAGUGCUGAGCACAUAGUAGGCGUUUAAUAAAUGCUUGUUGAAGUAUUGUGUGGAUU", "RBNS enrichment (R)": 0.586}
{"Oligonucleotide": "ACUGUGCGUCUCCUGCCUUGUCGUUCGGUAAUGAGACUAGAAAGAGAUACACUGUAAAGGAGGGGGAAGGGAAGGGUUGACCAGUUGGGUUUUUUGCGUCCUUUUGGAAU", "RBNS enrichment (R)": 1.46}
{"Oligonucleotide": "GAGCCAACAUCUGAAGAAACCCAUUGCUACGGCUUCCAGUGAAUGCCAGAGGAAAUGAUCUGUCCAUUUUUAGCAGAUUUGAAGGGAGGAUCUGCUUCAGGUGUAGUCUG", "RBNS enrichment (R)": 1.34}
{"Oligonucleotide": "CUUUUAAAUCUGUAUGUAAAAUCUUUUCAAAAUACAUUUUUAAGCUAAUACUCUUAACAUAGAUUAUGAAGUUAAGUGAAAUUUAUGGCUCUAACAGCAAAAUAAUUAAA", "RBNS enrichment (R)": 7.43}
{"Oligonucleotide": "UUUUUAAGACUAAGGCAGUUUAUAGAAUGAAGUAUAUCAAUAUUCUUUUGGUUUCCCAAAGCAAUAUUUUACUUUUCAUUUAUUAUAGUUUGAAAGACAUUUUUCAUUGU", "RBNS enrichment (R)": 0.665}
{"Oligonucleotide": "GGCGUUUCAACUCAUAUAAUACAGAAAGAGUUUUGAAUGGGCAGAUUUCAAACUGAAUAUGGGUCCCCAAAUGUUCCCAGAGGGUCCUCCACACCCUCUGCCGACUACCA", "RBNS enrichment (R)": 0.409}
{"Oligonucleotide": "GCCAACCGGCUGCUCUAGGCUCCUGAGGAGUGUCCCUUCUCAAAGGAACUGCGCCCUGGAAAGGGCUCCCCGAAGUUCUAGGUGGCCUUGACCUGACACUUGCAUUUUCU", "RBNS enrichment (R)": 1.34}
